Assay results of several laboratories.
“And” joins repeats or separate records; there may be more than shown. Numbers after ± are the reported error.
TRPM8: Transient receptor potential cation channel subfamily M member 8 (TRPM8, Homo sapiens, UniProt Q7Z2W7)
FFAR4: Free fatty acid receptor 4 (FFAR4, Homo sapiens, UniProt Q5NUL3)
GAP50: Glideosome-associated protein 50 (GAP50, Plasmodium falciparum, UniProt Q8I2X3)
Maoa: Amine oxidase [flavin-containing] A (Maoa, Rattus norvegicus, UniProt P21396)
NADH dehydrogenase [ubiquinone] iron-sulfur protein 7, mitochondrial/NADH dehydrogenase [ubiquinone] iron-sulfur protein 2, mitochondrial/MT-ND1: NADH dehydrogenase [ubiquinone] iron-sulfur protein 7, mitochondrial/NADH dehydrogenase [ubiquinone] iron-sulfur protein 2, mitochondrial/MT-ND1 (Homo sapiens, UniProt O75251+O75306+P03886)
PDE1C isoform PDE1C2: Dual specificity calcium/calmodulin-dependent 3',5'-cyclic nucleotide phosphodiesterase 1C, isoform PDE1C2 (PDE1C, Homo sapiens, UniProt Q14123)
Kir3.1/Kir3.2: Kir3.1/Kir3.2 (Homo sapiens, UniProt P48051+P48549)

The remaining activity of `Cn1cnc2cc3c(Nc4cccc(Br)c4)ncnc3cc21` is reported as 90.8 ± 4.32% (TRPM8; antagonist; HEK293; 5 µM; baseline: control).
For `O=C(O)CCCCCNc1cc(=O)[nH]c(=O)[nH]1`, the agonist effect was 0% (FFAR4; β-arrestin recruitment; CHO; 10 µM; baseline: 30 µM TUG-891).
`CN1CCN(c2cc(-c3ccncc3)c(-c3ccc4ccccc4c3)nn2)CC1` has an activation of 1.5% (PTH2R (Homo sapiens, UniProt P49190); agonist, FLIPR; 12.5 µM).
`COc1ccc([C@@H]2CC(c3cccs3)=NN2C(=O)c2ccco2)cc1OC` gave a kon of 22100 M⁻¹ s⁻¹ (GAP50; binding, surface plasmon resonance; 1:1 binding model).
`COc1cc2ncnc(Nc3ccc(O)c(Br)c3)c2cc1OC` has a remaining activity of 78.5 ± 7.4% (TRPM8; antagonist; HEK293; 5 µM; baseline: control).
With `COC(=O)c1cn(C)c2ccc(-c3cccnc3)cc12` the activation was 0.96 fold (Nuclear receptor subfamily 4 group A member 2 (Homo sapiens, UniProt P43354); reporter gene, full-length homodimer NurRE reporter; 10 µM; baseline: vehicle).
`NCc1ccccc1` has a pKa1 of 8.3 ± 0.1 (Maoa; kcat/Km ascending limb free E S, substrate; pH 6.5-9.5).
With `CN1CCC(NCc2cccc(-c3ccc(S(=O)(=O)NCc4ccccc4)cc3)c2)CC1` the kon was 85200 M⁻¹ s⁻¹ (GAP50; binding, surface plasmon resonance; 1:1 binding model).
`C=CC(=O)N1CCC(COCC(=O)N2CCN(c3nc(-c4cnc(N)nc4C(F)F)nc(N4CCOC[C@@H]4C)n3)CC2)CC1` gave a remaining binding of 81% (MAP4K2 (Homo sapiens, UniProt Q12851); KINOMEscan; 1 µM).
With `CC(C)(C)CCNc1cc(=O)[nH]c(=O)[nH]1` the agonist effect was 1% (FFAR4; β-arrestin recruitment; CHO; 10 µM; baseline: 30 µM TUG-891).
Under CDK9 degradation, `CC(C)(C)c1cnc(CSc2cnc(NC(=O)C3CCN(C(=O)CCCCCCCN4Cc5cc6c(cc5C4)C(=O)N(C4CCC(=O)NC4=O)C6=O)CC3)s2)o1` (stereo not drawn) is recorded as “inhibited” (CDK9 (Homo sapiens, UniProt P50750); degrader, Western blot; TC-71; 20 nM, 4 h, added: pretreatment with MG132, MLN4924 or thalidomide 2 h).
`COc1cc2ncc(-c3ccccc3)nc2cc1OC` gave a remaining activity of 106 ± 9.63% (TRPM8; antagonist; HEK293; 5 µM; baseline: control).
For `O=C(ON1C(=O)CCC1=O)c1cc(C(F)(F)F)cc(C(F)(F)F)c1`, the Hill slope was 3.1 (CD209 antigen (CD209, Homo sapiens, UniProt Q9NNX6); binding, grating-coupled interferometry; mannose-PEG3 chip; 2 h, no Tris).
For `COc1ccc(C(=O)NCc2ccc(CNS(=O)(=O)c3ccccc3)cc2)cc1`, the EC was 1000 nM (CXCR4 (Homo sapiens, UniProt P61073); binding, inhibitor, competitive binding; MDA-MB-231; added: biotinylated TN14003).
The log Kd of `COc1ccc(CN)cc1` is reported as -6.4 M (Maoa; pKa-corrected).
`[H]/N=C(/N)NCC(=O)O`: “normalised MST signal” 0.0371 (SLC6A6 (Homo sapiens, UniProt P31641, G62A); binding, microscale thermophoresis; 500 µM, room temperature, added: 50 nM labelled protein; higher = more binding).
`NC(=O)NO` — result for “oxygen consumption rate”: 70.5 ± 7.99% (NADH dehydrogenase [ubiquinone] iron-sulfur protein 7, mitochondrial/NADH dehydrogenase [ubiquinone] iron-sulfur protein 2, mitochondrial/MT-ND1; complex I-dependent respiration, Seahorse XF96; HCT-116; 400 µM, 24 h; baseline: control).
The relative inhibition of `CC(C)[C@H](NC(=O)c1cc(-c2cnn3cc(-c4ccc(OCCN5CCCCC5)cc4)cnc23)cs1)C(F)(F)F` is reported as 0.0568 (TNIK (Homo sapiens, UniProt Q9UKE5); radiometric kinase; 15 nM; baseline: TNIK over ULK1).
The Hill slope of `COc1ccc(OC)c(NC(=O)N2CCOc3ccc(C)cc32)c1` is reported as 1.5 (3-oxoacyl-[acyl-carrier-protein] reductase FabG (fabG, Pseudomonas aeruginosa, UniProt O54438); enzyme activity, inhibitor, NADPH fluorescence; reverse reaction, added: 3-OH-decanoyl-NAC, NADP).
With `O=C1NC(=O)/C(=C/c2ccc3c(c2)OC(F)(F)O3)S1` the remaining activity was 93.4 ± 4.59% (TRPM8; antagonist; HEK293; 5 µM; baseline: control).
Under “activity relative to T3”, `NC(Cc1cc(I)c(Oc2cc(I)c(O)c(I)c2)c(I)c1)C(=O)O` (stereo not drawn) is recorded as 88% (Thyroxine 5-deiodinase (DIO3, Homo sapiens, UniProt P55073); deiodination, substrate; concentration not given; baseline: T3).
The reaction rate of `Nc1nc2c(ncn2[C@@H]2O[C@H](COP(=O)(O)O)[C@@H](O)[C@H]2O)c(=O)[nH]1` is reported as 1.26 s⁻¹ and 0.803 s⁻¹ and -0.123 s⁻¹ (GUK1 (Homo sapiens, UniProt Q16774, E72A); enzyme activity, NADH-coupled; 2000 µM).
Under “oxygen consumption rate”, `NC(=O)NOCCCCCCCCCCCCCCCC[P+](c1ccccc1)(c1ccccc1)c1ccccc1.O=C([O-])C(F)(F)F` is recorded as 2.14% (NADH dehydrogenase [ubiquinone] iron-sulfur protein 7, mitochondrial/NADH dehydrogenase [ubiquinone] iron-sulfur protein 2, mitochondrial/MT-ND1; complex I-dependent respiration, Seahorse XF96; HCT-116; 10 µM, 24 h; baseline: control).
With `c1ccc(C[C@@H]2CN(c3nccc(Oc4ccc(-n5ccnc5)cc4)n3)CCN2)cc1` the kon was 15500 M⁻¹ s⁻¹ (GAP50; binding, surface plasmon resonance; 1:1 binding model).
`Cc1cc2c(c(=O)[nH]1)C(=O)O/C2=C\c1cc(Br)ccc1OC(C)C`: “binding free energy” -9.43 kcal/mol (PDE1C isoform PDE1C2; enzyme activity, inhibitor; added: 3H-cGMP substrate).
With `O=c1cc(NCCc2c[nH]c3ccccc23)[nH]c(=O)[nH]1` the inhibition was 14 ± 6% (FFAR4; antagonist, β-arrestin recruitment; CHO cells; 10 µM).
`Oc1c(F)cc(C(c2cc(F)c(O)c(F)c2)(C(F)(F)F)C(F)(F)F)cc1F`: activity “active” (ATP2A1 (Oryctolagus cuniculus, UniProt P04191); ATPase activity, inhibitor, PK/LDH coupled; concentration not given).
With `C[C@@H](c1cc(Cl)cc(Cl)c1)N(C)c1ncc2c(N)nc(N)nc2n1` the kon was 6770 M⁻¹ s⁻¹ (GAP50; binding, surface plasmon resonance; 1:1 binding model).
With `C[N+](C)(C)CC(=O)O` the Ka was 5.54e+08 M⁻¹ and 4.71e+08 M⁻¹ (uncharacterized protein (Pelagibacter ubique, UniProt Q4FKZ8); binding, competition isothermal titration calorimetry; Candidatus Pelagibacter ubique; added: glycine 2.5 mM competitor).
For `CCOc1ccccc1/C=C1\OC(=O)c2c1cc(C)[nH]c2=O`, “binding free energy” read -9.31 kcal/mol (PDE1C isoform PDE1C2; enzyme activity, inhibitor; added: 3H-cGMP substrate).
For `C#CCNCc1ccc(C(=O)c2ccc([N+](=O)[O-])cc2)cc1`, the Ki ratio was under 0.01 (TMEM97 (Homo sapiens, UniProt Q5BJF2); radioligand binding; RT-4 cell membranes; baseline: sigma1 Ki over sigma2 Ki).
With `CC(=O)N[C@H]1C(O)O[C@H](CO)[C@@H](O)[C@@H]1O[C@H](C)C(=O)N[C@@H](C)C(=O)N[C@H](CCC(=O)O)C(N)=O` (mixture of isomers) the SPR response was 30.6% (Nucleotide-binding oligomerization domain-containing protein 2, LRR domain (NOD2, Homo sapiens, UniProt Q9HC29); inhibitor, SPR competition; concentration not given, added: LRR domain 120 nM; baseline: reference).
The activation of `CN1C(C(=O)Nc2ccccn2)=C(O)c2sc(Cl)cc2S1(=O)=O` is reported as 0.86 fold (Nuclear receptor subfamily 4 group A member 2, LBD (Homo sapiens, UniProt P43354); reporter gene, Gal4 hybrid reporter; 30 µM; baseline: vehicle).
`[Cl-].[K+]` has a reaction velocity of 0.0595 µM/s and 0.0569 µM/s and 0.0745 µM/s (GUK1 (Homo sapiens, UniProt Q16774); enzyme activity, NADH-coupled; 7.5 mM).
`O=c1cc(N2CCC(Cc3ccccc3)CC2)[nH]c(=O)[nH]1` has an inhibition of -13 ± 7% (FFAR4; antagonist, β-arrestin recruitment; CHO cells; 10 µM).
`NC(=O)NOCCCCCCCCCCCCCC[P+](c1ccccc1)(c1ccccc1)c1ccccc1.O=C([O-])C(F)(F)F`: “oxygen consumption rate” 47.6 ± 11.2% (NADH dehydrogenase [ubiquinone] iron-sulfur protein 7, mitochondrial/NADH dehydrogenase [ubiquinone] iron-sulfur protein 2, mitochondrial/MT-ND1; complex I-dependent respiration, Seahorse XF96; HCT-116; 1.5 µM, 24 h; baseline: control).
`Nc1ncnc2c1ncn2[C@@H]1O[C@H](COP(=O)(O)OP(=O)(O)NP(=O)(O)O)[C@@H](O)[C@H]1O`: “current ratio Mg2+-bound over free” 0.0922 ± 0.0307 (P2X purinoceptor 3 (P2RX3, Homo sapiens, UniProt P56373); ion current, agonist, patch clamp; HEK293; 1 µM).
`CCCCCCN(C)c1cc(=O)[nH]c(=O)[nH]1` has an inhibition of 16 ± 13% (FFAR4; antagonist, β-arrestin recruitment; CHO cells; 10 µM).
The target engagement of `[O-][S+]1CCCCS1` (stereo not drawn) is reported as 5.26% (SOD1 (Homo sapiens, UniProt P00441, G94A); intact protein LC-MS; SOD1 G93A transgenic mice, whole blood; intravenous, 10 mg/kg, 168 h, mean of two mice).
Under “kon fold increase”, `Oc1ccc(/C=C/c2cc(O)cc(O)c2)cc1` is recorded as 1.15 fold (O-methyltransferase (Sorghum bicolor, UniProt A0A1B6PFV1); biolayer interferometry; added: saturating SAH; baseline: apo protein).
With `COc1cccc(-n2nc3c4cc(Cl)ccc4[nH]cc-3c2=O)c1` the GABA current was 100% (Gamma-aminobutyric acid receptor subunit alpha-4/beta-3, with delta subunit (Rattus norvegicus, UniProt P28471+P63079); modulator, two-electrode voltage clamp; α4β3δ receptor; 1 nM, added: GABA EC3-10; baseline: GABA alone).
`CCNc1cc(=O)[nH]c(=O)[nH]1` has an activation of 1% (FFAR4; agonist, β-arrestin recruitment; CHO cells; 10 µM).
For `O=c1nc(SCc2cc(F)cc(C(F)(F)F)c2)nc(SCc2ccc3sccc3c2)[nH]1`, “ATP hydrolysis rate” read 1.52 µM/min and 2.02 µM/min (TOP2A (Homo sapiens, UniProt P11388); ATPase activity; 7.8 µM, added: ATP 2 mM).
For `CC[C@@H]1[C@H](F)C(=O)N[C@@H]1COc1nccc2cc(C(N)=O)c(OC)cc12`, the inhibition was 1.3% (TBK1 (Homo sapiens, UniProt Q9UHD2); ATP-site probe binding, ActivX profiling; THP-1 cell lysate; 0.01 mM, Lys1 site).
For `CCc1cc(NC(=O)COc2ccc(Cl)cc2Cl)n(C2CCC(F)(F)CC2)n1`, the selectivity ratio was 12.2 fold and 12 fold (Kir3.1/Kir3.2; thallium flux; HEK293; baseline: GIRK1/4 EC50 over Kir3.1/Kir3.2 EC50).
`CN(CCCCCCNC(=O)CNc1cccc2c1C(=O)N(C1CCC(=O)NC1=O)C2=O)Cc1cn(Cc2ccc(C(=O)NO)cc2)c2ccccc12.O=C(O)C(F)(F)F` (stereo not drawn) gave a degradation of 85% (HDAC10 (Homo sapiens, UniProt Q969S8); degrader, western blot; MM1.S; 1 µM, 24 h).
`O=c1cc(NCCc2cccc(Cl)c2)[nH]c(=O)[nH]1` has an activation of 1 ± 1% (FFAR4; agonist, β-arrestin recruitment; CHO cells; 10 µM).
`Nc1nc2ccc(F)cc2[nH]1` gave a Hill coefficient of 1.27 ± 0.12 (HVCN1 (Homo sapiens, UniProt Q96D96, F150A); proton current, inhibitor, inside-out patch clamp).
`CC(=C/C(=O)O)/C=C/C=C(\C)C1C=C2C(C)(C)CCCC2(C)O1` (stereo not drawn) — result for “plasma membrane localization”: 0.96 (Rhodopsin (RHO, Homo sapiens, UniProt P08100, T17M); immunostaining, item: opsin; COS-7 transfected; 30.00 µM, unit not given; baseline: surface over total stained cells).
The Emax of `O=C(COc1cccc(Cl)c1Cl)Nc1cc(C2CCC2)nn1C1CCOCC1` is reported as 41% (Kir3.1/Kir3.2; activator; HEK293).
For `Nc1ncnc2c1ncn2[C@@H]1O[C@H](COP(=O)(O)CP(=O)(O)OP(=O)(O)O)[C@@H](O)[C@H]1O`, the calcium influx was 96.4% and 100% and 85.4% (P2X purinoceptor 1 (P2RX1, Homo sapiens, UniProt P51575, K136W); calcium influx; 3.16 µM; baseline: ionomycin response).
